Measured values from different studies.
Each line is one published result; not all experiments were run side by side. ± marks the error that the study gave.

N[C@H]1CC[C@H](N[C@@H]2C[C@H]2c2ccccc2)CC1 — remaining compound (aqueous buffer; 4 days, 37 °C): 94%
Cn1cncc1-c1c(F)cncc1NC(=O)c1c(N)nn2cc(F)cnc12 — remaining compound (human EDTA plasma; 15 ng/mL, time not given, 3 freeze-thaw cycles at -80 °C, low QC): 105%
CSc1nccc(C(=O)N[C@@H](CCC(=O)O)C(=O)N[C@@H](Cc2ccc3ccccc3c2)C(=O)N[C@@H](CC(C)C)C(=O)NC2CC2c2ccccc2)n1 (stereo partly drawn) — remaining compound (pooled human plasma; 15 min, 37 °C): 104%
NC(=O)c1ccccc1NC(=O)c1ccc(-c2ccccc2)cc1 — remaining compound (human plasma; 2 µM, 10 min, 37 °C): 114%
Cc1cc(Oc2ncccc2CN2CCN(c3cccc(C)c3C)CC2)ccc1-c1c(C)c(=O)[nH]c(=O)n1C — remaining compound (metabolic stability; rat liver S9 fraction; 2 µM, 0.6667 h, pH 7.4): > 90%
COc1ccc2[nH]c([S+]([O-])Cc3ncc(C)c(OC)c3C)nc2c1 (stereo not drawn) — remaining compound (simulated gastric fluid with pepsin; 1 µM, 30 min, pH 1.2): 0%
Cc1cc2ccccc2n1CCNC(=O)c1cnc(Nc2ccccc2)nc1 — remaining compound (mouse liver microsomes; 60 min): > 7%
Cc1c(Br)cc(NC(=O)CS(=O)(=O)O)cc1Br — remaining compound (mouse liver microsomes; 4 µM, 30 min): 0%
C#Cc1ccc(C(F)(F)F)cc1C=O — remaining compound (HPLC-MS; HEPES buffer with 10% acetonitrile; 1 mM, 1 h, pH 7.4): 98%
CCOc1ccc2ccc(=O)oc2c1 — remaining compound (mouse liver microsomes; 1 µM, 60 min, pH 7.4, together with: with cofactors): 0.2%
CC(C)=CCC[C@](C)(O[C@@H]1O[C@H](CO[C@@H]2O[C@H](CO)[C@@H](O)[C@H](O)[C@H]2O)[C@@H](O)[C@H](O)[C@H]1O)[C@H]1CC[C@]2(C)[C@@H]1[C@H](O)C[C@@H]1[C@@]3(C)CC[C@H](O[C@@H]4O[C@H](CO)[C@@H](O)[C@H](O)[C@H]4O[C@@H]4O[C@H](CO)[C@@H](O)[C@H](O)[C@H]4O)C(C)(C)[C@@H]3CC[C@]12C — remaining compound (rat plasma; 25 ng/mL, 24 h, room temperature): 102 ± 1.4%
CSc1ncc(Br)c(C(=O)N[C@@H](CCC(=O)O)C(=O)N[C@@H](Cc2ccc3ccccc3c2)C(=O)N[C@@H](CC(C)C)C(=O)N[C@@H]2C[C@H]2c2ccccc2)n1 — remaining compound (pooled human plasma; 0 min, 37 °C): 100%
CCN(CC)CCOC(=O)c1ccc(N)cc1 — remaining compound (human plasma; 10 µM, 5 min): 2.2%
C=CC(=O)N1CCC(C(=O)NCC(=O)N2CCN(c3nc(-c4cnc(N)nc4C(F)F)nc(N4CCOCC4)n3)CC2)CC1 — remaining compound (microsomes, rat liver, male, Sprague-Dawley; 1 µM, 10 min, 0.5 mg/mL microsomal protein, together with: NADPH): 94%
O=C(N1CCCCC1)C12CC(c3ccccc3)(C1)C2 — remaining compound (pooled human liver microsomes; 2 µM, 40 min, without NADPH): 105%
N#Cc1ccc(Nc2nc(N)cc(Oc3c(F)cc(-c4ccc(C#N)cc4)cc3F)n2)cc1 — remaining compound (human plasma; 1 µM, 2.00 h, pH 7.4, 37 °C): 86.7%
Cc1ccc2c(c1)C(=O)[C@]1(O)CCN(c3ccc4nc(C)ccc4c3)C1=N2.Cl — remaining compound (DMEM culture medium, 0.5% FBS; 10 µM, 72 h, 37 °C, no vitamin C): > 90%
CCOC(=O)C1=C(CN2CCC[C@@H]2C(=O)Nc2ccc(B(O)O)cc2)NC(c2nccs2)=N[C@H]1c1ccc(F)cc1Br — remaining compound (human liver microsomes; 1 µM, 60 min, pH 7.4): 78%
COc1ccc2c(Cc3ccccc3F)c3n(c(=O)c2c1OC)CCc1cc2c(cc1-3)OCO2 — remaining compound (rat liver microsomes; 10 µM, 30 min, pH 7.4, together with: microsomes 0.5 mg/mL): 35 ± 3%
C#CCN(C)Cc1ccccc1 — remaining compound (aqueous buffer; 4 days, 37 °C): 98%
N#Cc1ccc(-c2cc(NCCCN3CCCCC3)c3ccccc3n2)cc1 — remaining compound (human plasma; 1 h): 94.7%

Excerpt of the above:
N#Cc1ccc(-c2cc(NCCCN3CCCCC3)c3ccccc3n2)cc1 — remaining compound (human plasma; 1 h): 94.7%
Cc1c(Br)cc(NC(=O)CS(=O)(=O)O)cc1Br — remaining compound (mouse liver microsomes; 4 µM, 30 min): 0%
